# Measurements of several laboratories.
# Protocols differ between the studies behind these lines. ± gives the spread as reported.
SMILES,assay,test system,conditions,how to read,measurement,value
C[C@@H]1CC[C@H]2[C@@H](C)CO[C@@H]3O[C@@]4(C)CC[C@@H]1[C@]32OO4,item: compound,"rat, plasma","50.0 ng/mL spiked, 30 days, long-term storage at -80 °C",,stability accuracy,97.4%
Cc1ccc(OCC(=O)N(Cc2cccs2)c2ccn[nH]2)cc1,,"Crl:CD(SD) rat, bred female","oral, 300 mg/kg/day, mean per litter, developmental toxicity",,corpora lutea count,16.9
CC[C@H](C)[C@H](NC(=O)[C@H](CC(=O)O)NC(=O)[C@H](CO)NC(=O)[C@H](CCC(N)=O)NC(=O)[C@H](C)NC(=O)[C@H](CC(=O)O)NC(=O)[C@H](CCC(=O)O)NC(=O)[C@H](Cc1c[nH]cn1)NC(=O)[C@H](Cc1ccc(O)cc1)NC(=O)[C@H](C)NC(=O)[C@H](CC(=O)O)NC(=O)[C@H](CCC(=O)O)NC(=O)[C@H](Cc1c[nH]cn1)NC(=O)[C@H](Cc1ccc(O)cc1)NC(=O)[C@H](C)NC(=O)[C@H](CC(=O)O)NC(=O)[C@H](CCC(=O)O)NC(=O)[C@H](Cc1c[nH]cn1)NC(=O)[C@H](Cc1ccc(O)cc1)NC(=O)[C@H](C)NC(=O)[C@H](CC(=O)O)NC(=O)[C@H](CCC(=O)O)NC(=O)[C@H](Cc1c[nH]cn1)NC(=O)[C@H](Cc1ccc(O)cc1)NC(=O)[C@H](C)NC(=O)[C@H](CC(=O)O)NC(=O)[C@H](CCC(=O)O)NC(=O)[C@H](Cc1c[nH]cn1)NC(=O)[C@@H](N)Cc1ccc(O)cc1)C(=O)N[C@H](C(=O)N[C@@H](C)C(=O)N[C@@H](Cc1c[nH]cn1)C(=O)N[C@@H](CC(C)C)C(=O)N[C@@H](CC(C)C)C(=O)O)C(C)C,,"mouse, SN model",dose not given,,RDW,26.9 ± 4.5%
C=Cc1cc(O)cc2nc(-c3ccc(O)c([76Br])c3)oc12,,"female C57BL/6 mouse, ovaries","1 h, low dose",,tissue uptake,0.35 ± 0.03 %ID/g
CCN(Cc1ccccc1)C(=O)CCc1nc(CN2CCN(C(=O)Cc3ccc(OC)c(OC)c3)CC2)no1,,"rat, plasma","intravenous, 1 mg/kg, 15 min",,concentration,223 ng/mL
N=C(N)NCc1ccc(C(=O)NCCCC[C@H](NC(=O)N[C@@H](CCC(=O)O)C(=O)O)C(=O)O)cc1[211At],,"SCID mouse, PC-3 xenografts, stomach",2 h,,tissue uptake,2.55 ± 0.69 %ID/g
COC(=O)C[C@](O)(CCCC(C)(C)OC(C)=O)C(=O)O[C@@H]1C(OC)=C[C@]23CCCN2CCc2cc4c(cc2[C@H]13)OCO4,,"CD1 mouse, brain","subcutaneous, 1 mg/kg, 0.5 h",,tissue concentration,9.67 ng/mL
CC[C@H](C)[C@@H]1NC(=O)[C@H](CCCCN)NC(=O)[C@H](CCCCN)NC(=O)[C@H](Cc2ccc(O)cc2)NC(=O)[C@H](CC(C)C)NC(=O)[C@@H]2CCCN2C(=O)[C@H](C)NC(=O)CNC(=O)CNC(=O)[C@H](CO)NC(=O)CNC(=O)CNC(=O)[C@H](CO)NC(=O)[C@H](CCC(=O)O)NC(=O)[C@H](CC(C)C)NC(=O)[C@H](CC(C)C)NC(=O)[C@H](CCCCN)NC(=O)[C@H](CCCCN)NC(=O)[C@H]([C@@H](C)CC)NC(=O)[C@H]([C@@H](C)CC)NC(=O)[C@H](CCCCN)NC(=O)[C@H](CCCCN)NC(=O)[C@H](Cc2ccc(O)cc2)NC(=O)[C@H](CC(C)C)NC(=O)[C@@H]2CCCN2C(=O)[C@H](C)NC(=O)CNC(=O)[C@@H](NC(=O)CN)CSSC[C@@H](C(=O)N[C@@H](CCC(=O)O)C(=O)N[C@@H](CO)C(N)=O)NC(=O)[C@H](CC(C)C)NC(=O)[C@H](CCCCN)NC(=O)[C@H](CCCCN)NC(=O)[C@H]([C@@H](C)CC)NC1=O,hemolysis,uninfected human erythrocytes,1 h,,HC10,14.7 ± 1.3 µM
"O=C(c1ccc(F)cc1)C1CCN(C2Cc3c(cccc3OCC[18F])CC2O)CC1 (single isomer, unassigned; (-))",,"Sprague-Dawley rat, male, blood","intravenous, dose not given, 5 min",,tissue uptake,0.209 ± 0.029 %ID/g
CCCCCCCC(=O)OC[C@H](NC(=O)[C@H](CO)NC(=O)CN)C(=O)N[C@@H](Cc1ccccc1)C(=O)N[C@@H](CC(C)C)C(=O)N[C@@H](CO)C(=O)N1CCC[C@H]1C(=O)N[C@@H](CCC(=O)O)C(=O)N[C@@H](Cc1cnc[nH]1)C(=O)N[C@@H](CCC(N)=O)C(=O)N[C@@H](CCCNC(=N)N)C(=O)N[C@H](C(=O)N[C@@H](CCC(N)=O)C(=O)N[C@@H](CCC(N)=O)C(=O)N[C@@H](CCCNC(=N)N)C(=O)N[C@@H](CCCCN)C(=O)N[C@@H](CCC(=O)O)C(=O)N[C@@H](CO)C(=O)N[C@@H](CCCCN)C(=O)N[C@@H](CCCCN)C(=O)N1CCC[C@H]1C(=O)N1CCC[C@H]1C(=O)N[C@@H](C)C(=O)N[C@@H](CCCCN)C(=O)N[C@@H](CC(C)C)C(=O)N[C@@H](CCC(N)=O)C(=O)N1CCC[C@H]1C(=O)N[C@@H](CCCNC(=N)N)C(=O)O)C(C)C,,"human, both sexes, plasma","intravenous infusion, 3 µg/kg/h, 65 min infusion",,mean residence time,0.75 ± 0.0333 h
C[C@]12CC[C@H](OCC[18F])C[C@H]1CC[C@@H]1[C@@H]2CC[C@]2(C)[C@@H](c3ccc(=O)oc3)CC[C@]12O,micro-PET,"BALB/c nude mice, SMMC-7721 xenograft, liver","intravenous, 7.4 MBq, 5 min",,peak tissue uptake,30.1 ± 3.05 %ID/g
N=C(N)NCc1ccc(C(=O)NCCCC[C@H](NC(=O)CCCCCCC(=O)NCCCC[C@H](NC(=O)N[C@@H](CCC(=O)O)C(=O)O)C(=O)O)C(=O)O)cc1[211At],,"SCID mouse, PC-3 xenografts, spleen",1 h,,tissue uptake,9.51 ± 2.76 %ID/g
CN(C)C(CNC(=O)Nc1cc(C(F)(F)F)ccc1N1CCOCC1)c1ccncc1 (stereo not drawn),,"mouse, serum","intraperitoneal, 240 mg/kg single dose",,serum direct bilirubin,0 mg/dL
Cc1ccc2c(n1)c(-c1cccc(S(C)(=O)=O)c1)c(C)n2C/C(F)=C/CN,,healthy human volunteers,"dose not given, 14 days dosing plus 7 days drug-free",,tolerability,not toxic
CSCC[C@@H]1NC(=O)[C@@H]2CSSC[C@H](NC(=O)[C@H](CO)NC(=O)[C@H](C)N)C(=O)N[C@@H](CCCNC(=N)N)C(=O)N[C@@H]([C@@H](C)O)C(=O)N3CCC[C@H]3C(=O)N[C@@H](CCCCN)C(=O)N[C@@H](CC(=O)O)C(=O)N[C@H]3CSSC[C@H](NC(=O)[C@H](CCCCN)NC(=O)[C@H](CCCNC(=N)N)NC(=O)[C@H](CC(N)=O)NC1=O)C(=O)N[C@@H](CCCCN)C(=O)N[C@H]1CSSC[C@H](NC(=O)[C@@H]4CCCN4C(=O)[C@H](CC(=O)O)NC(=O)[C@H](C)NC3=O)C(=O)N[C@@H](C)C(=O)N[C@@H](CCCCN)C(=O)N[C@@H](CCC(=O)O)C(=O)N[C@@H]([C@@H](C)O)C(=O)NCC(=O)N[C@@H](CSSC[C@@H](C(N)=O)NC(=O)[C@H](CCCNC(=N)N)NC(=O)[C@H](CC(N)=O)NC1=O)C(=O)N1CCC[C@H]1C(=O)N[C@@H](Cc1ccc(O)cc1)C(=O)NCC(=O)N[C@@H](CCCCN)C(=O)N2,,"DA rat pristane-induced arthritis, serum","subcutaneous, 0.1 mg/kg once weekly, 21 days",,Triglycerides,54.2 mg/dL
O=P1(NCCCl)NCCCO1 (stereo not drawn),,"rat, plasma","intravenous, 10 mg/kg, added: ketoconazole 40 mg/kg oral 50 min before",,AUC(0-inf),494 ± 96.3 ng·h/mL
CC[C@H](C)C(=O)N1CCC(NC(=O)Nc2ccc(OC(F)(F)F)c(F)c2)CC1,,healthy volunteers,"oral, 0.5 mg single dose",,subjects with palpitations TEAE,0%
COc1ccc(NC(=O)Cn2c(=O)c3ccccc3n(CC(=O)Nc3cc([125I])c(OC)cc3OC)c2=O)cc1,,"rat, heart","intravenous, 5 min",,tracer uptake,0.39 %ID/g
CC1(C)C(=CC=CC=CC2=[N+](CCCCN=[N+]=[N-])c3ccc(S(=O)(=O)[O-])cc3C2(C)C)N(CCCCCC(=O)O)c2ccccc21,,PBS,,,molar absorption coefficient,189000 M⁻¹ cm⁻¹
CC(C)[C@H](NC(=O)CNC(=O)[C@H](CCC(N)=O)NC(=O)[C@H](C)N)C(=O)O,,human,"intravenous infusion, 45 mg/kg/h, 2 h, relatedness Probably",baseline: subjects,drug-related adverse events,0%
O=C(CP(c1ccccc1)c1ccccc1)[O][Ti+2][O]C(=O)CP(c1ccccc1)c1ccccc1.c1cc[cH-]c1.c1cc[cH-]c1,,DMSO/water 1:99,5 x 10 µM,,pH,5.52
CN[C@](C)(C[18F])C(=O)O,,"SCID mouse MDA-MB-468 xenograft, blood",60 min post injection,,tissue uptake,1 ± 0.3 %ID/g
Cc1ccc(/C=C/C(=O)O)cc1-c1cc2c(cc1C)C(C)(C)CCC2(C)C,,"Sprague-Dawley rat, male","oral, 100 mg/kg, 9 h, sesame oil vehicle",,blood triglycerides,123 ± 27 mg/dL
CC(CCC(=O)NCC(=O)O)C1CCC2C3CCC4CC(OC5OC(C(=O)O)C(O)C(O)C5O)CCC4(C)C3CC(O)C12C (stereo not drawn),,"human, SLCO1B1 *14/*35, plasma","geometric mean, sex-adjusted",,plasma concentration,58.7 ng/mL
CC[C@H](C)[C@H](NC(=O)[C@@H](CCCCN)NC(=O)[C@H](CCCCN)NC(=O)[C@H](Cc1ccccc1)NC(=O)[C@H](CC(C)C)NC(=O)[C@@H](CCCCN)NC(=O)[C@H](Cc1c[nH]c2ccccc12)NC(=O)[C@H](CCCCN)NC(C)=O)C(=O)NCC(=O)N[C@@H](C)C(=O)N[C@H](C(=O)N[C@@H](CC(C)C)C(=O)N[C@@H](CCCCN)C(=O)N[C@H](CCCCN)C(=O)N[C@@H](CC(C)C)C(N)=O)C(C)C,,human red blood cells,"up to 64 µM, 1 h, 5% red blood cells",,hemolysis,< 5%
CCCCCCCCCCCCCCCC(=O)N[C@@H](Cc1c[nH]cn1)C(=O)N[C@@H](Cc1ccccc1)C(=O)N[C@@H](CCCNC(=N)N)C(=O)N[C@@H](Cc1c[nH]c2ccccc12)C(=O)NCC(=O)N[C@@H](CCCCN)C(=O)N1CCC[C@H]1C(=O)N[C@H](C(N)=O)C(C)C,,mouse erythrocytes,"up to 62.5 µM, 1 h",baseline: Triton X-100,hemolysis,≤ 1%
CCNc1cc2[o+]c3cc(NCC)c(C)cc3c(-c3ccccc3C(=O)OCCOCC[18F])c2cc1C,,"rat, mandibular gland",120 min,,tissue uptake,2.31 ± 0.54 %ID/g
CNC(=O)c1cccc(-c2ccc(O[C@H]3O[C@H](CO)[C@@H](O)[C@H](O)[C@@H]3O)c(C)c2)c1,,rat,"oral, 10 mg/kg, 10% cyclodextrin formulation",,half-life,2.8 h
C=C1C(=O)O[C@@H]2[C@H]1CC[C@H](C)[C@@]1(O[Si](C)(C)C)C=CC(=O)[C@@]21C,propidium iodide flow cytometry,"primary splenocytes, BALB/c mouse","48 h, 10% fetal calf serum",,CC50,0.5 ± 0.7 µg/mL
O=c1c2cc(Cl)ccc2sc2c(NCc3ccccc3)nc3ccccc3c12,,BALB/c nude mice,"i.p., 20 mg/kg",,body weight,24.95 ± 0.24 g

# Repeated from above:
SMILES,assay,test system,conditions,how to read,measurement,value
O=P1(NCCCl)NCCCO1 (stereo not drawn),,"rat, plasma","intravenous, 10 mg/kg, added: ketoconazole 40 mg/kg oral 50 min before",,AUC(0-inf),494 ± 96.3 ng·h/mL
CC[C@H](C)C(=O)N1CCC(NC(=O)Nc2ccc(OC(F)(F)F)c(F)c2)CC1,,healthy volunteers,"oral, 0.5 mg single dose",,subjects with palpitations TEAE,0%
COc1ccc(NC(=O)Cn2c(=O)c3ccccc3n(CC(=O)Nc3cc([125I])c(OC)cc3OC)c2=O)cc1,,"rat, heart","intravenous, 5 min",,tracer uptake,0.39 %ID/g
